Results of several laboratories.
Parts stem from different laboratories: compare values within a part only.

Series 1 — method: RNA Bind-n-Seq; molecule type: RNA; sample: in vitro; concentration: not given; setting: RNA with constant flanks, ends assumed; relative to: input RNA pool; direction: higher = stronger binding; quantity: bound/input enrichment
Target: RING finger protein unkempt homolog, zinc fingers 1-6, GST-SBP tag (UNK, Homo sapiens, UniProt Q9C0B0, residues 30-357)
Chain of UniProt Q9C0B0 (30-357, looked up): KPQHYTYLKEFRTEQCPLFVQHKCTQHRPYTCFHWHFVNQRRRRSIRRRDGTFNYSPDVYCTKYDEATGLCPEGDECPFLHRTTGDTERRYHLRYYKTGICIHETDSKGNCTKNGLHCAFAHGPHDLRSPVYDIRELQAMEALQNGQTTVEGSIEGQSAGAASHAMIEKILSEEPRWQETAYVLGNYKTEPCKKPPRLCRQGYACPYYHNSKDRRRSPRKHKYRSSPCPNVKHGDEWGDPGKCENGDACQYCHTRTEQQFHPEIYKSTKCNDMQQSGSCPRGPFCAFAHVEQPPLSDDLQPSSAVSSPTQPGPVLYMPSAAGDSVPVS
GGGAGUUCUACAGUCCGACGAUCGGGAGCAUUGGUGAAAUAGAAUCCUGCAAACUUGUGAGAGACAAAAUUACAGGACAGAGUUCCGGGUAUGGAUUUGUUAACUAUAUUGAUCCAAAGGAUGCAGAGAAAGCCAUCAACACUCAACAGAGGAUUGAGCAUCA: 0.233 ratio
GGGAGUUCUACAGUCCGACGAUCGAACUUCAAGCUUCACAGAUAUUACAGAACAAGAAACAUAAAAAUUCUCAAUUAGAUAAAAACCGUGAAGUUUAUCAGGAAGUUCAAGCUAUGUUUGAUACACUUGGUAUACCCAAGUCACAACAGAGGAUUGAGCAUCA: 0.234 ratio
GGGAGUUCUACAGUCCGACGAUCGAAACAUCUCCAGAGACAUCACUGAUCCAAGAUGAAGUUGCCCUCAAGCUGUCUGCCGAAAUCCCUUGCCCGCCUCCAGUUUCCGAAGCUGAUUUAUCCACGGAUGAGAAGGGUGAGGUCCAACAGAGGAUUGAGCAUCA: 0.125 ratio
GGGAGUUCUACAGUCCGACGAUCCCAGUCCACAGGGGAAGCCUGUUAGGACUGUGGAGCGUGUUUCCCCGAAGGUAGCUUCCAACCCGGCUUUCCUCACUGCUUUCUCCCCCAGCGCCUGUAUUAUGUGAAGGAGGCCCAUGGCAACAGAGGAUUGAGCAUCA: 0.152 ratio
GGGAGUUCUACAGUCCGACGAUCGAAGUCAGGAAAAAGUGUGCUGAGGAGGCCCAGCUGAUUUCUUCCCUGAAAGCAGAAAUAACCCGUCAAGAAUCUCAGAUCUCCAGUUAUGAGGAAGAACUGUUGAAAGCUAGAGAAGAACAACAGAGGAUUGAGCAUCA: 0.317 ratio
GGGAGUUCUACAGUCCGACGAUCUUCCACAUCAUUAUUCCAGUCAUGUGGAGCUUUGUAACUGGUCAUUUGCCUUCUUUCAUAAUCCGUGACGUAUGCGACGUAAAGCCACUAGAAAAGGCACAUCUUUUUAAUACUCAUUAUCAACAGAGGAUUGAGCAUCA: 0.281 ratio
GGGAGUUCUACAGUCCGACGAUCUUUAAGACUUUAUAUUGUGUUUCAAACAAAGAAAGCCCUAACCAAAACAAUACUACCCACUCCGAUAUUGCUGCAGUUCAAGGUUUUUCAGUCAUCUUGGACUUCCUGUAUUCUGGGAACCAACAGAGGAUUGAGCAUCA: 0.252 ratio

Series 2 — method: RNA Bind-n-Seq; molecule type: RNA; sample: in vitro; concentration: 365 nM; relative to: no-protein control; direction: higher = stronger binding; quantity: RBNS enrichment (R)
Target: RNA binding protein fox-1 homolog 2, RRM domain, GST-SBP tag (RBFOX2, Homo sapiens, UniProt O43251-10, residues 100-194)
Setting: natural RNA segment, single round, ends assumed
Construct (chain): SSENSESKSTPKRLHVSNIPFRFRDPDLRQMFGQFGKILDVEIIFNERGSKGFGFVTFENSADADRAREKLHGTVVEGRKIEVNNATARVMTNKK
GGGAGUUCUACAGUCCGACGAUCUUGGAUCAUGGCAGGUGCUUGUUCAAAGCCCUUUCUUGUUGCCUCUGCCAUCUGGGUGAAGUCUAGACCACUUGCUUGGCCUAGGUGUCUUCUGCUCUACCACCCACCCUUGGAAUUCUCGGGUGCCAA: 0.345
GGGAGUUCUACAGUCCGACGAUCCUGGCAUAUCACCCCGCACUGUGGGGCCAGGCACCACUAGCCUGGCUCAAAUAUUCCCCAGGGAGACUGCUGUGUGCUGCCCGCCUGCCUGCUGGCUCUCCCCCAGCCCCUGGAAUUCUCGGGUGCCAA: 0.532
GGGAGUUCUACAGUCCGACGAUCGCCUACGUGGUGUCUUCUUCCCAAUAGAGCCUGCAGCCAGCUGGGGUCCUGAGGGCAGAGGGACAAGCAGGGUCCUGGUGCUAUUUGCUCCUUACUGGGGAGGGGAGGGAUGGAAUUCUCGGGUGCCAA: 0.571
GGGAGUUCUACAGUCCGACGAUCUGGAGGCUUCAGUGACGACAGGCAGUUGUCACAAAAACUCACUCAUCAACUUCUUGGUGAAUUUGACAGGCAAGAAGAUGACAUUCACUUAGUGACAUUAUGUGUGACAGUGGAAUUCUCGGGUGCCAA: 0.27
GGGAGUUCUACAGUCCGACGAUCUGCACUGAGCAGGAACAUUGAAGAGUUGGGUGGUCGCACUGGUGUUAGCUGAAGAUGGGAAAGACUCAAGCCAUUGGGGUAAAGAUAACCAGAUUGAUCCAAUUGGCCAUUGGAAUUCUCGGGUGCCAA: 1.15
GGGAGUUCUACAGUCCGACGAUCUUUAUUUUAUGUGUAUGACUGUUUGCCUACGUGUAUAUAUGUGCACCACCUGUGUGCCUGGUGUCUGUAGAAGCCAGCAGGAGGCUGUUAGAUCUCCUGGGCCGGGCGUUUGGAAUUCUCGGGUGCCAA: 0.613
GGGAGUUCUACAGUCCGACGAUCUGCUCUCUACCAUGAAAGUGUAAAUACUGUAAUGUCUAAUCUAUUUAUCACAACUGACUACUGGACCAGGGCCCAGAAAUGUGGGUCAAGUUACAUGUGAAUUUGUUUGGUGGAAUUCUCGGGUGCCAA: 0.43
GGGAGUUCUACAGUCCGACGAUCUGUAUUUUAAUAUUUGUUAUUCUCUCAUGAAUAGAAAUUUAUGUAGAAGCAAACAAAAUACUUUUACCCACUUAAAAAGAGAAUAUAACAUUUUAUGUCACUAUAAUCUUUGGAAUUCUCGGGUGCCAA: 0.352
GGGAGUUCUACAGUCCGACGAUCCUAUAGCCAACACAAAGCAAAUGCCAGAGGUAUUGGAUGAUGCCAUAUUUGAACUGCCAUCUAUUAGCAUAUUCAUCACACUACAUAGACAUAGUUUUACUGCCCCCUUUUGGAAUUCUCGGGUGCCAA: 0.538
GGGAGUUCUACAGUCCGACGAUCAUGAAUUCUAGAUACAGCUACUUAUGGAUUCAUCAAUAUCAUGAGCACUUUUGCUGGUUCCAGUCAAUCAAUGGCAUUUAAUAAAUUUUUUAAGAAGUAAAAAUACAUGUUGGAAUUCUCGGGUGCCAA: 0.658
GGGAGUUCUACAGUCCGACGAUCCCAUAACAUAGCAGUGAAUCAGUCUCAGUGGUAUUGCUGAUAGCAGUAUUCAGGAAUAUGUGAUUUUAGGAGUUUCUGAUCCUGUGUGUCAGAAUGGCACUAGUUCAGUUUGGAAUUCUCGGGUGCCAA: 0.458
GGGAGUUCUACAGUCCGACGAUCCUCCCAAGUAGCUGGGAUUACAGGCACCCGCCACCACGCCCAGCUAAUUUUUGUAUUUUUGUAGAGAUGGGGUUUCACGAUGUUGGCCAGGCUGGUCUCAAACUUCUGACUGGAAUUCUCGGGUGCCAA: 0.617

Series 3 — method: protein binding microarray; molecule type: double-stranded DNA, one strand shown; sample: in vitro; concentration: not given; relative to: not given; direction: higher = stronger binding; quantity: E-score
Target: Histone acetyltransferase KAT6A, winged helix 2, GST fusion (KAT6A, Homo sapiens, UniProt Q92794, residues 85-181)
Setting: 8-mer, flanks averaged, mean of 2 arrays, mostly near background
Target sequence (chain): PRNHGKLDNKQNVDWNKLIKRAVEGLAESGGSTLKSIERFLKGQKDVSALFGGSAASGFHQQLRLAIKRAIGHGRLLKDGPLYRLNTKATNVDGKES
CACTTTAA: -0.135
AATGCGGA: 0.0143
ATGGATCG: -0.0457
ATCGTGAC: -0.0614
CATTCAGA: -0.0765
GACAGCAC: 0.068
ACAATAGC: -0.127
CTCAGTCA: -0.175
ACCTTACT: 0.0428
ACCCTGAG: -0.102
AAATCCGG: 0.183
AATGCGGC: -0.0224
AAATCCTC: -0.0572
AGCCTCGA: 0.0444
CATCTGCC: -0.0804
CAATCTAG: 0.101
ACGTTTCC: -0.222
AATCGACA: -0.0152
ATATGTTG: -0.147
AATAGTTG: -0.18
AAAGGTTA: -0.0682

Series 4 — method: protein-binding microarray; molecule type: double-stranded DNA, one strand shown; sample: in vitro; concentration: 250 nM; setting: 60-bp whole probe; with: salmon DNA 0.4 mg/ml; relative to: random background probes; direction: higher = stronger binding; quantity: log fluorescence; constant ends, left off below: GCCTAGCAC … GTCTTGATTCGCTTGACGCTGCTG
Target: Interferon regulatory factor 5, full length, phosphomimetic (IRF5, Homo sapiens, UniProt Q13568-2, residues 1-514, K96S/S451D/S453D/S456D/S462D)
TCAAGTCTCTGTTCTTTACTGTGCTAG: 0.502 z-score
GAATGTGTCTTAAATAGGGCAGTGCTA: 0.183 z-score
TTAGGACTGGGATTTCGGTTAGTGCTA: 2.93 z-score
TTAGAACAGAGTATCGATTAGTGCTAG: 5.3 z-score
CTGCACTCCAGTCTGGGAGAGTGCTAG: -0.312 z-score
TTAGATTTCTGGTATCGATTAGTGCTA: 6.28 z-score
TTAGATATCAGTCTCGATTCGTGCTAG: 1.79 z-score
GCGGGAGAAAGCAAGCCCAGGTGCTAG: -0.0878 z-score
ATTAGAGGATAACTTACAGAGTGCTAG: -0.171 z-score
TTAGATCTCAGTCTCGATAAGTGCTAG: 0.759 z-score
TCAAGTCTTCTCCTCTAACTGTGCTAG: -0.089 z-score
TCAACTTTAACTTATTCTACTGTGCTA: 0.876 z-score
TTAGTACTGCTTATCCTTTAGTGCTAG: 0.056 z-score
GACGATTTCATTTTCGAGACGTGCTAG: 4.08 z-score
TCACATTGCCTATTTTTCACTGTGCTA: 1.08 z-score
CTAGATTTCGGGTTTCGATTAGTGCTA: 8.22 z-score
TTAGAACTGAGGACTGGATTAGTGCTA: -0.00429 z-score
TCAAATTTTGCTTCTAGACTGTGCTAG: 0.336 z-score
TCATGGTCCTCTCTCTAACTGTGCTAG: -0.128 z-score

Series 5 — method: RNAcompete; molecule type: RNA; sample: in vitro; concentration: 20 nM; setting: 7-mer, probes averaged, single round; relative to: mean of 7-mers; direction: higher = stronger binding; quantity: 7-mer Z-score
Target: PABPC1L2, full length, GST fusion (mouse, UniProt A0ABA7IW68)
Residues (chain): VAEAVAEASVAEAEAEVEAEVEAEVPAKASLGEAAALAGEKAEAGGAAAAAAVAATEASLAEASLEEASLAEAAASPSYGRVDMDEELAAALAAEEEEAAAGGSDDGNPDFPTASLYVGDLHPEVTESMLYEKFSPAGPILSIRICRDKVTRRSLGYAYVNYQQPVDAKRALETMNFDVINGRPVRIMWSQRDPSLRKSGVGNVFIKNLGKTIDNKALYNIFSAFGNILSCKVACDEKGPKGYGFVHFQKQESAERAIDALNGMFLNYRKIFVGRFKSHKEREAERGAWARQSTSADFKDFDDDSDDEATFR
GCUAGCU: -0.226
UUGAGAU: -0.124
GCUUGGA: 0.0134
UAGGUGC: 0.407
CCUAACG: -0.407
AUUACGA: 0.0297
AGUCCCG: -0.275
CAGGCAG: 0.216
GGUUCUU: -0.289
GUCCUGU: -0.296
GAUGGGC: 0.0406
ACGUCCC: -0.331
GCGGCCC: -0.344
AGGAGAC: 0.171
AUGGUAC: -0.0935
GAGAAUU: -0.101
UCCUAGC: -0.231

Series 6 — method: universal PBM; molecule type: double-stranded DNA, one strand shown; sample: in vitro; concentration: not given; direction: higher = stronger binding; quantity: E-score
Target: Sal-like protein 4, full length isoform B (SALL4, Homo sapiens, UniProt Q9UJQ4-2, residues 1-616)
Setting: 8-mer, flanks averaged, mean of replicates
Target sequence (chain): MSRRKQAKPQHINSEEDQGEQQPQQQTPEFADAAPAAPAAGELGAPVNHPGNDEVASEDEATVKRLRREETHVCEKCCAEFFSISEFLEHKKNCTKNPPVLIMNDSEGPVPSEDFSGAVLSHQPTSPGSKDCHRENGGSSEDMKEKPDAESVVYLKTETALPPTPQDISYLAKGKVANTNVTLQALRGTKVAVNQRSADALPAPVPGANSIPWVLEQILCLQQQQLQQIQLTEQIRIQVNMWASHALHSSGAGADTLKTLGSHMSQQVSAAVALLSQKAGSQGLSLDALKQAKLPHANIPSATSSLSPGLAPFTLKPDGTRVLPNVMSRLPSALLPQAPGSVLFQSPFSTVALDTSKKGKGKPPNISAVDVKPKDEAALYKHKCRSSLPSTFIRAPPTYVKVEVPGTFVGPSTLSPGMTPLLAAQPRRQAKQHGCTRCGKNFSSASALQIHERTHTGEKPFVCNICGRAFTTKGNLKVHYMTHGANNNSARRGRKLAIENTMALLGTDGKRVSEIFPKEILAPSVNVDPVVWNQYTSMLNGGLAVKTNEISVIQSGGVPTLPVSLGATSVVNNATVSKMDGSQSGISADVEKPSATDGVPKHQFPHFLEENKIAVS
CATTATGC: 0.21
ACATAGTC: 0.2
AGCAGCGA: -0.0853
AGAAGGCC: -0.12
ATCCGTGG: -0.186
CTGCAGGA: -0.00707
AAGAAACA: 0.206
CCTGTCCG: -0.259
GGACCGGA: -0.364
ATAATGGC: 0.127
TGACCGCA: -0.197
GTGCAGTA: -0.0877
CCGTGGCC: -0.392
CTGTGTCC: -0.115
CCGCCTGC: -0.302
AAGCGTCC: -0.126
ACGTTGTC: -0.0154
AGTGGTGG: -0.0645
CAAAGTTA: 0.239
TTAGTCAA: 0.102

A few entries again (series 5):
GCUUGGA: 0.0134
UAGGUGC: 0.407
CCUAACG: -0.407
AUUACGA: 0.0297
AGUCCCG: -0.275
CAGGCAG: 0.216
GGUUCUU: -0.289
GUCCUGU: -0.296
GAUGGGC: 0.0406
ACGUCCC: -0.331
GCGGCCC: -0.344
